Experimental data pooled from the literature.
± marks the error that the study gave.

| SMILES | assay | system | conditions | scale | measurement | result |
| --- | --- | --- | --- | --- | --- | --- |
| COC(=O)C[C@](O)(CCCC(C)(C)OC(C)=O)C(=O)O[C@@H]1C(OC)=C[C@]23CCCN2CCc2cc4c(cc2[C@H]13)OCO4 | – | CD1 mouse, large intestine | oral, 1 mg/kg, 24 h, below quantification limit 1.00 ng/mL | – | tissue concentration | not detected |
| CN[C@](C)(C[18F])C(=O)O | – | mouse, pancreas | 2 h, tumour-bearing | – | tracer uptake | 18 %ID/g |
| CC[C@H](C)CCCCC(=O)N[C@@H](CCN)C(=O)N[C@H](C(=O)N[C@@H](CCN)C(=O)N[C@H]1CCNC(=O)[C@H]([C@@H](C)O)NC(=O)[C@H](CCN)NC(=O)[C@H](CCN)NC(=O)[C@H](CC(C)C)NC(=O)[C@@H](Cc2ccccc2)NC(=O)[C@H](CCN)NC1=O)[C@@H](C)O | LC-MS/MS | CD-1 mouse, kidney homogenate | subcutaneous, 17.2 mg/kg single dose, 4 to 16 h | – | kidney AUC(4-16 h) | 688 µg·h/g |
| CSCC[C@@H]1NC(=O)[C@@H]2CSSC[C@H](NC(=O)[C@H](CO)NC(=O)[C@H](C)N)C(=O)N[C@@H](CCCNC(=N)N)C(=O)N[C@@H]([C@@H](C)O)C(=O)N3CCC[C@H]3C(=O)N[C@@H](CCCCN)C(=O)N[C@@H](CC(=O)O)C(=O)N[C@H]3CSSC[C@H](NC(=O)[C@H](CCCCN)NC(=O)[C@H](CCCNC(=N)N)NC(=O)[C@H](CC(N)=O)NC1=O)C(=O)N[C@@H](CCCCN)C(=O)N[C@H]1CSSC[C@H](NC(=O)[C@@H]4CCCN4C(=O)[C@H](CC(=O)O)NC(=O)[C@H](C)NC3=O)C(=O)N[C@@H](C)C(=O)N[C@@H](CCCCN)C(=O)N[C@@H](CCC(=O)O)C(=O)N[C@@H]([C@@H](C)O)C(=O)NCC(=O)N[C@@H](CSSC[C@@H](C(N)=O)NC(=O)[C@H](CCCNC(=N)N)NC(=O)[C@H](CC(N)=O)NC1=O)C(=O)N1CCC[C@H]1C(=O)N[C@@H](Cc1ccc(O)cc1)C(=O)NCC(=O)N[C@@H](CCCCN)C(=O)N2 | – | DA rat pristane-induced arthritis, serum | subcutaneous, 0.1 mg/kg once weekly, 21 days | – | Sodium | 144 mmol/L |
| c1ccc(C2(CCNC3CCC4(SCCS4)c4ccccc43)CCOC3(CCCC3)C2)nc1 (stereo not shown) | – | ICR mice, male, plasma | subcutaneous, 0.1 mg/kg | – | clearance | 86.6 mL/min/kg |
| C/C=C/C=C/C/C=C/CCCCCCCc1cccc(O)c1O | – | female Kunming mice, tumour-bearing, tumor | intravenous, 10 mg/kg, 1 h | – | tissue concentration | 43300 ± 3590 ng/g |
| O=c1c(-c2cnn(-c3ccc(Cl)cc3)c2)c(C(F)(F)F)oc2c(O)c(O)ccc12 | – | mouse | intraperitoneal, 100 mg/kg, 24 h | – | trough concentration | 89 nM |
| Nc1ccn(C[C@@H](CO)OCP(=O)(O)OCCCS(=O)(=O)CCCCCCCCCCCCCC2CCC2)c(=O)n1 | – | uninfected mice | once daily dosing | – | NOAEL | 30 mg/kg/day |
| CC(C)C[C@H](NC(=O)[C@H](CCCCN)NC(=O)[C@H](CCC(=O)O)NC(=O)[C@H](C)NC(=O)[C@@H](NC(=O)[C@H](CCCCN)NC(=O)[C@H](CC(=O)O)NC(=O)[C@H](Cc1ccc(O)cc1)NC(=O)[C@H](Cc1ccccc1)NC(=O)[C@H](C)NC(=O)[C@H](CCCCN)NC(=O)[C@H](CC(C)C)NC(=O)[C@H](Cc1c[nH]c2ccccc12)NC(=O)[C@@H](N)CC(=O)O)C(C)C)C(=O)N[C@@H](CCCCN)C(=O)N[C@@H](CCC(=O)O)C(=O)N[C@@H](C)C(=O)N[C@@H](Cc1ccccc1)C(=O)N1CCC[C@H]1C(=O)N[C@@H](CC(=O)O)C(=O)N[C@@H](Cc1c[nH]c2ccccc12)C(=O)N[C@@H](C)C(=O)N[C@@H](CCCCN)C(=O)N[C@@H](C)C(=O)N[C@@H](C)C(=O)N[C@@H](Cc1ccc(O)cc1)C(=O)N[C@@H](CC(=O)O)C(=O)N[C@@H](CCCCN)C(=O)N[C@@H](C)C(=O)N[C@@H](C)C(=O)N[C@@H](CCC(=O)O)C(=O)N[C@@H](CCCCN)C(=O)N[C@@H](C)C(=O)N[C@@H](CCCCN)C(=O)N[C@@H](CCC(=O)O)C(=O)N[C@@H](C)C(=O)N[C@@H](C)C(=O)O | – | cynomolgus monkey female, plasma | intravenous infusion, 25 mg/kg every other day, day 27 | – | volume of distribution at steady state | 0.076 L/kg |
| COC[C@@H](NC(C)=O)C(=O)NCc1ccc(-c2cccc(Cl)c2)cc1 | MES seizure | Sprague-Dawley rat male | oral | baseline: TD50 over ED50 | protective index | > 91 |

Repeated from above:
| SMILES | assay | system | conditions | scale | measurement | result |
| --- | --- | --- | --- | --- | --- | --- |
| Nc1ccn(C[C@@H](CO)OCP(=O)(O)OCCCS(=O)(=O)CCCCCCCCCCCCCC2CCC2)c(=O)n1 | – | uninfected mice | once daily dosing | – | NOAEL | 30 mg/kg/day |
